Measured values from different studies.
Protocols differ between the studies behind these lines. Several values in a cell are separate wells, animals, samples, runs or records. Numbers after ± are the reported error.
CYP3A4: Cytochrome P450 3A4 (CYP3A4, Homo sapiens, UniProt P08684)
Chain of UniProt P08684 (whole entry, looked up): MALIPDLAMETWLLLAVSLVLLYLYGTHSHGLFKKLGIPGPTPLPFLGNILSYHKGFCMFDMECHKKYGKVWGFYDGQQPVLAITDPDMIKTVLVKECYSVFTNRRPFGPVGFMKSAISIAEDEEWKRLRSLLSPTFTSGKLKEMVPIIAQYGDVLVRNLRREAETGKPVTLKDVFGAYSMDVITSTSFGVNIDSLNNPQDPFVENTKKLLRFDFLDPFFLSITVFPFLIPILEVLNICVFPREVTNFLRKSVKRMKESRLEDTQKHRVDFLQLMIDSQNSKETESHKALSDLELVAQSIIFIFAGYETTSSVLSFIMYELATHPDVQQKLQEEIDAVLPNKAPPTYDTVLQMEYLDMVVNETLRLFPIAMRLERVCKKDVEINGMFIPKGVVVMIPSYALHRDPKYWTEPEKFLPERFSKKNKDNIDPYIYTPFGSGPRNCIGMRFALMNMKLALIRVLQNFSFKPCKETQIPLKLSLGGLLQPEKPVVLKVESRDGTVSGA
Chain of UniProt P10619 (whole entry, looked up): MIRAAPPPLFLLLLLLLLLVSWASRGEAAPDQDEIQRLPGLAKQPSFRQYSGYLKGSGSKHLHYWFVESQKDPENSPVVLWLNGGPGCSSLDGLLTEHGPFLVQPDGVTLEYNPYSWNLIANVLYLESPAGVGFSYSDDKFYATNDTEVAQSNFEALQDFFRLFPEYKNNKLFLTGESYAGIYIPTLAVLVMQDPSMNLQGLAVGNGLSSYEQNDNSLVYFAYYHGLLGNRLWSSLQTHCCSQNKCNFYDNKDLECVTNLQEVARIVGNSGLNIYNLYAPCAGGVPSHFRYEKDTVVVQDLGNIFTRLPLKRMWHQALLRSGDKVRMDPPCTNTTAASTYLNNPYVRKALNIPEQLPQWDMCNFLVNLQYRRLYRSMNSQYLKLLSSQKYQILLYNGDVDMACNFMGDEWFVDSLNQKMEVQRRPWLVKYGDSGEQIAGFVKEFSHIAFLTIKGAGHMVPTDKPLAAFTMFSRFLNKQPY
Chain of UniProt P34969 (whole entry, looked up): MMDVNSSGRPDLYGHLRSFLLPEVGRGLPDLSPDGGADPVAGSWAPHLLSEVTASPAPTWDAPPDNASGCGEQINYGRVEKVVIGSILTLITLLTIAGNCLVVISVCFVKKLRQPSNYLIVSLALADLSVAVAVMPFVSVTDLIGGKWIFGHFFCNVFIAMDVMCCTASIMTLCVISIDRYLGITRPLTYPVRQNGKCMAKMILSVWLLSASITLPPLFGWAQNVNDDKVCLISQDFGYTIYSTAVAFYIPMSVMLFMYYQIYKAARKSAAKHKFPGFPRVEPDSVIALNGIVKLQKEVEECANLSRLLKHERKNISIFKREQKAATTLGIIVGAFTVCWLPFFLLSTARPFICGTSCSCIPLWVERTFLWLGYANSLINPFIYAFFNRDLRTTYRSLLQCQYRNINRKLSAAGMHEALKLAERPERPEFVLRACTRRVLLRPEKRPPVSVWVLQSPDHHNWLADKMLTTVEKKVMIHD
Chain of UniProt Q96NY8 (whole entry, looked up): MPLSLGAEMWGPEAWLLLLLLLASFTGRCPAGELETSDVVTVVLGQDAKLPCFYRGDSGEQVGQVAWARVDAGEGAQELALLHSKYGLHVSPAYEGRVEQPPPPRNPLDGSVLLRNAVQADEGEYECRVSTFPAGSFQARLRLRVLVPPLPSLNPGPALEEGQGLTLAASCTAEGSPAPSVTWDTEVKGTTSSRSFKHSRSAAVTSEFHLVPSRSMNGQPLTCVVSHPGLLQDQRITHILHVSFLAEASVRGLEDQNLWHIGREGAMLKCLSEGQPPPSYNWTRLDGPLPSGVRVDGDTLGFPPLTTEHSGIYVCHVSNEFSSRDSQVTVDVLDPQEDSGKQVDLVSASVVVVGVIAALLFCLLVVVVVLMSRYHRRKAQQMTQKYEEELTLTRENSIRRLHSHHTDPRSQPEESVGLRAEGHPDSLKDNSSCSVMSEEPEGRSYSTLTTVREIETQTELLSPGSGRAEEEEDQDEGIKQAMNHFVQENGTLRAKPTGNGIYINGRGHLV
Chain of UniProt Q07011 (whole entry, unmodified, looked up): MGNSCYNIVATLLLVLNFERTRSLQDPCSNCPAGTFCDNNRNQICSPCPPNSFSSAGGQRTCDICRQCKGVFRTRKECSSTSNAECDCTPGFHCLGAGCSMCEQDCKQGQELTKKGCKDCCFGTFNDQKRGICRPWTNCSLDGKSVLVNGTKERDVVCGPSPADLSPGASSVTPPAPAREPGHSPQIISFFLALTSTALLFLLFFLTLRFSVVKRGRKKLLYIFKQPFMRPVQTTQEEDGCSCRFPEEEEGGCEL
Chain of UniProt Q9NPD5 (whole entry, looked up): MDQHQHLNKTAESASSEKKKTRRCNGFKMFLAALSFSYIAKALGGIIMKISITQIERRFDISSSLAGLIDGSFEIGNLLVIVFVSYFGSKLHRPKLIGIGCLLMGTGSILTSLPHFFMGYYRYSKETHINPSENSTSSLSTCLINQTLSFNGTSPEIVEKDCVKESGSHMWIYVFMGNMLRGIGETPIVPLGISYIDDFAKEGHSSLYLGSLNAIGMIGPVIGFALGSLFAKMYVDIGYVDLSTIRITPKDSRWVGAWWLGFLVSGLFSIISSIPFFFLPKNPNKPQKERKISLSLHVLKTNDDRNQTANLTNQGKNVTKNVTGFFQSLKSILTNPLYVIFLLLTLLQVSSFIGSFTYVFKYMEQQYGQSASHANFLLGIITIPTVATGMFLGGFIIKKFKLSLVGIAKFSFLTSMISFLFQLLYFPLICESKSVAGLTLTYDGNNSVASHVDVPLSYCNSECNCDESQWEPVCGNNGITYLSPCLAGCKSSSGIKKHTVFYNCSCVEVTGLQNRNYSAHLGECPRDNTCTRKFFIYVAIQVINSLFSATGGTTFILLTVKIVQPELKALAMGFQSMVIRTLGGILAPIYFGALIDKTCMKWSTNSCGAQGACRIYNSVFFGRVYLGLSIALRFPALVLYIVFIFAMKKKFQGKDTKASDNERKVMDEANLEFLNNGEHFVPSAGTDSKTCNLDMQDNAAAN
Chain of UniProt O15244 (whole entry, looked up): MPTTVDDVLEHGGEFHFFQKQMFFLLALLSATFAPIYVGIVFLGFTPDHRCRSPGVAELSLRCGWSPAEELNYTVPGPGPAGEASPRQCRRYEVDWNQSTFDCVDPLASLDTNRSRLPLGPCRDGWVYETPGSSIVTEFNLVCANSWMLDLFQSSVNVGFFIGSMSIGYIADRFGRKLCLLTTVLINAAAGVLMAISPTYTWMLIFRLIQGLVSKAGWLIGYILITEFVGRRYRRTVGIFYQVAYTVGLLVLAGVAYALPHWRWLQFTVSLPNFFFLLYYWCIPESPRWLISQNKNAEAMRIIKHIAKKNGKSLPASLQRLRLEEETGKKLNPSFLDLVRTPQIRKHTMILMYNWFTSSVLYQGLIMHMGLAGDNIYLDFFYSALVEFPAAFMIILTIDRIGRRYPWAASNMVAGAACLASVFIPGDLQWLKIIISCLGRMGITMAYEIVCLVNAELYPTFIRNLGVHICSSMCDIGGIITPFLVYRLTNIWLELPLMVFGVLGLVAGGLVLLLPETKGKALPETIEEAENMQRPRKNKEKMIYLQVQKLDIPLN

Compound | target or system | assay | test system | conditions | how to read | quantity | result
CC(C)C[C@H](NC(=O)[C@H](CC(C)C)NC(=O)[C@H](CCCCN)NC(=O)[C@H](Cc1ccccc1)NC(=O)[C@@H](NC(=O)[C@H](CCCNC(=N)N)NC(=O)[C@@H](N)CCCCN)C(C)C)C(=O)N[C@@H](CCCCN)C(=O)N[C@@H](CCCNC(=N)N)C(=O)N[C@@H](Cc1ccc(O)cc1)C(=O)N[C@@H](Cc1c[nH]c2ccccc12)C(=O)N[C@@H](CCCNC(=N)N)C(=O)N[C@@H](CCC(N)=O)C(=O)N[C@@H](CC(C)C)C(=O)N[C@@H](CCCCN)C(=O)N[C@@H](CCCCN)C(=O)N1CCC[C@H]1C(=O)N[C@H](C(=O)N[C@@H](CCCNC(=N)N)C(=O)NCCOCCOCC(=O)O)C(C)C | Chymotrypsinogen A (Bos taurus, UniProt P00766) | HPLC |  | 1 mg/mL, 6 h, 37 °C, added: enzyme to peptide 50:1 |  | intact peptide remaining | 32 to 35%
Cc1cccc2c1C1(CCN(C(=O)c3ccc4[nH]ncc4c3)CC1)C(=O)N2CC(=O)NCC(F)(F)F | CYP3A4 | enzyme activity, inhibitor |  |  |  | IC50 | 46 µM
CS(C)(=O)=Nc1ccc(-c2ccc(-c3nc4cc(O[C@@H]5CO[C@H]6[C@@H]5OC[C@H]6O)[nH]c4cc3F)cc2)cc1 | 5-hydroxytryptamine receptor 7 (HTR7, Homo sapiens, UniProt P34969) | calcium signal, antagonist |  | 10 µM |  | inhibition | 17%
CC[C@H](C)[C@@H]1NC(=O)[C@H](CO)NC(=O)[C@H](CCCCN)NC(=O)[C@@H]2CSSC[C@@H](C(=O)N[C@@H](Cc3ccc(O)cc3)C(N)=O)NC(=O)[C@H](CCCCN)NC(=O)[C@@H]3CSSC[C@H](NC(=O)[C@H](CCCNC(=N)N)NC(=O)[C@H](CC(C)C)NC(=O)[C@H](CC(=O)O)NC(=O)[C@H](CC(=O)O)NC(=O)[C@H](CCC(=O)O)NC(=O)[C@H](CC(N)=O)NC(=O)[C@H](Cc4c[nH]c5ccccc45)NC(=O)[C@@H]4CCCN4C(=O)CNC(=O)[C@H](CC(N)=O)NC(=O)[C@@H](NC(=O)CNC(=O)[C@H](Cc4ccccc4)NC(=O)CN)CSSC[C@H](NC(=O)[C@H](Cc4ccc(O)cc4)NC(=O)CNC(=O)CNC(=O)[C@H](CCCCN)NC(=O)[C@H](Cc4ccc(O)cc4)NC(=O)CNC(=O)[C@H](CCCCN)NC1=O)C(=O)N[C@@H](C)C(=O)N[C@@H](CCCCN)C(=O)NCC(=O)NCC(=O)N[C@@H](Cc1ccccc1)C(=O)N[C@@H](C(C)C)C(=O)N3)C(=O)N[C@@H](Cc1c[nH]cn1)C(=O)N[C@@H](CC(N)=O)C(=O)N[C@@H](Cc1c[nH]cn1)C(=O)N2 | trypsin | peptide degradation, HPLC | NH4HCO3 CaCl2 buffer | 13.2 µM, pH 8.5, room temperature, added: trypsin 36 µM |  | half-life | 0.05 h
CC(C)OC(=O)[C@H](C)NP(=S)(Oc1ccccc1)c1ccccc1 (some centres unmarked) | Lysosomal protective protein (CTSA, Homo sapiens, UniProt P10619) | substrate, LC-MS/MS |  | 5 µM, pH 7.4, 37 °C |  | half-life | 3.8 h
CCCC[C@@H]1NC(=O)[C@H](Cc2ccc(O)cc2)NC(=O)[C@@H]2CCCN2C(=O)[C@H](CC(=O)O)NC(=O)[C@H](C)NC(=O)[C@H](Cc2ccccc2)NC(=O)[C@@H]2CSCCC(=O)N3CN(CN(C3)C(=O)CCSC[C@@H](C(=O)N[C@@H](C)C(N)=O)NC1=O)C(=O)CCSC[C@H](NC(C)=O)C(=O)N[C@@H](CC(C)(C)C)C(=O)N1CCC[C@H]1C(=O)N[C@@H](CCC(=O)O)C(=O)N[C@H](CCCCNC(=O)CCc1cn(CCOCCOCCOCCN(CCOCCOCCOCCC(=O)N[C@H]3CSCCC(=O)N4CN5CN(C4)C(=O)CCSC[C@H](NC(=O)[C@@H](CC(=O)O)NC(=O)[C@H](Cc4cccc6ccccc46)NC(=O)[C@@H]4CCCN4C3=O)C(=O)N[C@@H](CCSC)C(=O)N[C@@H](CCCCNC(=N)N)C(=O)N[C@@H](CC(=O)O)C(=O)N[C@@H](Cc3c[nH]c4ccccc34)C(=O)N[C@@H](CO)C(=O)N[C@@H]([C@@H](C)O)C(=O)N3CCC[C@H]3C(=O)N3C[C@H](O)C[C@H]3C(=O)N[C@@H](Cc3c[nH]c4ccccc34)C(=O)N[C@H](C(N)=O)CSCCC5=O)CCOCCOCCOCCn3cc(CCC(=O)NCCCC[C@H]4NC(=O)[C@H](CCC(=O)O)NC(=O)[C@@H]5CCCN5C(=O)[C@H](CC(C)(C)C)NC(=O)[C@@H](NC(C)=O)CSCCC(=O)N5CN6CN(C5)C(=O)CCSC[C@H](NC(=O)[C@H](Cc5ccc(O)cc5)NC(=O)[C@@H]5CCCN5C4=O)C(=O)N[C@@H](Cc4ccccc4)C(=O)N[C@@H](C)C(=O)N[C@@H](CC(=O)O)C(=O)N4CCC[C@H]4C(=O)N[C@@H](Cc4ccc(O)cc4)C(=O)N[C@@H](CCCC)C(=O)N[C@H](C(=O)N[C@@H](C)C(N)=O)CSCCC6=O)nn3)nn1)C(=O)N1CCC[C@H]1C(=O)N[C@@H](Cc1ccc(O)cc1)C(=O)N2 | Tumor necrosis factor receptor superfamily member 9/Nectin-4 (Homo sapiens, UniProt Q07011+Q96NY8) | reporter gene, agonist, luciferase reporter | CD137 Jurkat reporter with HT-1376 | 6 h, geometric mean | reference: wells without compound | Emax | 54 fold
Cc1ccc(OCCN(C)C)cc1C(=O)N[C@H](C)c1cc(-c2cnn(C3CNC3)c2)nc2ccccc12 | Vero E6 |  |  | 3.906 µM |  | viability | 100% and 110%
CC[C@H](C)[C@H](NC(=O)[C@@H]1CC(=O)NCC[C@H](NC(=O)[C@H](C)N)C(=O)N[C@@H](CCCNC(=N)N)C(=O)N[C@@H](CC(N)=O)C(=O)N[C@@H]([C@@H](C)CC)C(=O)N[C@@H](Cc2ccccc2)C(=O)N[C@@H](CC(C)C)C(=O)N1)C(=O)N[C@@H](CCCCN)C(=O)N[C@@H](Cc1ccccc1)C(=O)N[C@@H](CCCCN)C(=O)N[C@@H](CCCCN)C(=O)N[C@@H](C)C(=O)O | trypsin | proteolytic degradation, RP-HPLC | PBS | 0.33 mM, pH 7.4, 37 °C, added: trypsin 0.05 µg/mL |  | half-life | < 1.5 h
CCN(CC)CCOc1ccc(-c2nnn(Cc3ccc(OC)cc3)c2N)cc1 | CYP3A | inhibitor |  |  |  | IC50 | > 50 µM
O=C1NC2(CC2)COc2ncc(F)cc2[C@H]2COCCN2c2ccn3ncc1c3n2 |  |  | Sprague-Dawley rat, female, plasma | oral, 20 mg/kg/day, end of recovery, 4-week repeated-dose toxicity |  | prothrombin time | 8.3 ± 0.2 s
CNC(=O)C1CCCN(C(=O)C2CC3CCC2N3C(=O)[C@@H]2C[C@@H](O)CN2C(=O)NCc2cccc(Cl)c2F)C1 (mixture of isomers) | human CYP3A4 | time-dependent inhibition |  | 50 µM, preincubation without NADPH, added: midazolam |  | 1-hydroxymidazolam formed | 1240 ng/mL
CC[C@H](C)[C@@H]1NC(=O)[C@H]([C@@H](C)O)NC(=O)CNC(=O)[C@H](CCCNC(=N)N)NC(=O)[C@H](CC(C)C)NC(=O)[C@@H]2CSSC[C@H](NC1=O)C(=O)N[C@H](C(=O)N[C@@H](CO)C(=O)NCC(N)=O)CSSC[C@H](NC(=O)[C@H](C)N)C(=O)N[C@@H](C)C(=O)N[C@@H](Cc1c[nH]c3ccccc13)C(=O)N2 | Chymotrypsinogen A, activated (alpha-chymotrypsin) (Bos taurus, UniProt P00766) | substrate, RP-HPLC/ESI-MS |  | 30 µM, 32 h, pH 7.4, 37 °C, PBS, ratio 1:100, added: bovine α-chymotrypsin 300 nM |  | cleavage | 60%
Cc1cc(-c2ccc3ccccc3c2)nnc1NCCN1CCN(C)CC1 | CYP3A4 | substrate | recombinant enzyme | 100 nM |  | half-life | > 1 h
O=C(CN1C(=O)C2(CCN(C(=O)c3ccc4[nH]ncc4c3)CC2)c2c(Br)cccc21)NCC(F)(F)F | CYP3A4 | enzyme activity, inhibitor |  |  |  | IC50 | 13 µM
CCCCCCCC/C=C/CCCCCCCC(=O)[O][Pt-2]1([OH])([Cl])([NH+]=C(CC)N(C)CCNc2c3ccccc3[nH+]c3ccccc23)[NH]CCC[NH]1.O=[N+]([O-])O.O=[N+]([O-])O | Albumin (ALB, Homo sapiens, UniProt P02768) | tryptophan fluorescence FRET titration | recombinant human serum albumin | pH 7.4, PBS |  | Kd | 1.4 µM
CSc1nc2[nH]nc([N+](=O)[O-])c(=O)n2n1 | Solute carrier organic anion transporter family member 1B3 (SLCO1B3, Homo sapiens, UniProt Q9NPD5) | transport, inhibitor | transiently transfected cells | 100 µM, 10 (unit not given), added: CCK-8 |  | inhibition | 22%
CC(=O)NCCCC[C@@H]1NC(=O)[C@H](Cc2c[nH]c3c(C)cccc23)NC(=O)[C@H]([C@@H](C)O)NC(=O)[C@H](CC(N)=O)NC(=O)[C@@H](NC(C)=O)C(C)(C)SSC(C)(C)[C@@H](C(=O)N[C@@H](Cc2ccc(OCCN)cc2)C(=O)N[C@@H](Cc2ccc3ccccc3c2)C(=O)NC2(C(=O)N[C@@H](CCC(=O)O)C(=O)N[C@@H](CC(N)=O)C(=O)N[C@@H](Cc3cccnc3)C(=O)N(C)CC(N)=O)CCOCC2)NC1=O | Solute carrier family 22 member 2 (SLC22A2, Homo sapiens, UniProt O15244) | substrate | HEK293 overexpressing transporter | 5 µM, 30 min, added: 300 µM quinidine |  | uptake rate | 0.449 ± 0.077 pmol/mg/min
CCn1ccc(-c2cc([C@@H](C)NC(=O)c3cc(N4CCN(C)[C@H](C)C4)ccc3C)c3ccccc3n2)n1 | Vero E6 |  |  | 15.62 µM |  | viability | 92.6% and 88.1% and 92.1%
CC[C@H](C)[C@@H]1NC(=O)[C@H](CC(C)C)NC(=O)[C@@H](NC(=O)[C@H](CCCNC(=N)N)NC(=O)[C@@H](NC(=O)CNC(=O)[C@@H]2CCCN2C(=O)[C@@H]2CCC(=O)NCC(=O)N[C@@H](CO)C(=O)N[C@@H](CCCNC(=N)N)C(=O)NCC(=O)N[C@@H](Cc3c[nH]c4ccccc34)C(=O)NCC(=O)N[C@@H](Cc3ccccc3)C(=O)N2)C(C)C)CSSC[C@@H](C(=O)N[C@@H](CC(=O)O)C(=O)O)NC(=O)[C@H](Cc2c[nH]c3ccccc23)NC1=O | carboxypeptidase B | substrate, LC-MS |  | 20 h, room temperature |  | proteolytic stability | stable
CC(C)(C)C(=O)OCOP(=O)(OCOC(=O)C(C)(C)C)C1CCCN(O)C1=O (centres unmarked) | U-251 |  |  |  |  | GI50 | 0.341 µM

A few entries again:
Compound | target or system | assay | test system | conditions | how to read | quantity | result
CC[C@H](C)[C@@H]1NC(=O)[C@H](CO)NC(=O)[C@H](CCCCN)NC(=O)[C@@H]2CSSC[C@@H](C(=O)N[C@@H](Cc3ccc(O)cc3)C(N)=O)NC(=O)[C@H](CCCCN)NC(=O)[C@@H]3CSSC[C@H](NC(=O)[C@H](CCCNC(=N)N)NC(=O)[C@H](CC(C)C)NC(=O)[C@H](CC(=O)O)NC(=O)[C@H](CC(=O)O)NC(=O)[C@H](CCC(=O)O)NC(=O)[C@H](CC(N)=O)NC(=O)[C@H](Cc4c[nH]c5ccccc45)NC(=O)[C@@H]4CCCN4C(=O)CNC(=O)[C@H](CC(N)=O)NC(=O)[C@@H](NC(=O)CNC(=O)[C@H](Cc4ccccc4)NC(=O)CN)CSSC[C@H](NC(=O)[C@H](Cc4ccc(O)cc4)NC(=O)CNC(=O)CNC(=O)[C@H](CCCCN)NC(=O)[C@H](Cc4ccc(O)cc4)NC(=O)CNC(=O)[C@H](CCCCN)NC1=O)C(=O)N[C@@H](C)C(=O)N[C@@H](CCCCN)C(=O)NCC(=O)NCC(=O)N[C@@H](Cc1ccccc1)C(=O)N[C@@H](C(C)C)C(=O)N3)C(=O)N[C@@H](Cc1c[nH]cn1)C(=O)N[C@@H](CC(N)=O)C(=O)N[C@@H](Cc1c[nH]cn1)C(=O)N2 | trypsin | peptide degradation, HPLC | NH4HCO3 CaCl2 buffer | 13.2 µM, pH 8.5, room temperature, added: trypsin 36 µM |  | half-life | 0.05 h
CC(C)C[C@H](NC(=O)[C@H](CC(C)C)NC(=O)[C@H](CCCCN)NC(=O)[C@H](Cc1ccccc1)NC(=O)[C@@H](NC(=O)[C@H](CCCNC(=N)N)NC(=O)[C@@H](N)CCCCN)C(C)C)C(=O)N[C@@H](CCCCN)C(=O)N[C@@H](CCCNC(=N)N)C(=O)N[C@@H](Cc1ccc(O)cc1)C(=O)N[C@@H](Cc1c[nH]c2ccccc12)C(=O)N[C@@H](CCCNC(=N)N)C(=O)N[C@@H](CCC(N)=O)C(=O)N[C@@H](CC(C)C)C(=O)N[C@@H](CCCCN)C(=O)N[C@@H](CCCCN)C(=O)N1CCC[C@H]1C(=O)N[C@H](C(=O)N[C@@H](CCCNC(=N)N)C(=O)NCCOCCOCC(=O)O)C(C)C | Chymotrypsinogen A (Bos taurus, UniProt P00766) | HPLC |  | 1 mg/mL, 6 h, 37 °C, added: enzyme to peptide 50:1 |  | intact peptide remaining | 32 to 35%
